Experimental data gathered from unrelated publications.
Each line is one published result; not all experiments were run side by side. ± gives the spread as reported.
MAPK8: Mitogen-activated protein kinase 8 (MAPK8, Homo sapiens, UniProt P45983)

Cc1cn(CC(=O)N(CC(=O)N[C@H]2CCC[C@@H]2N(CC(=O)N[C@H]2COC[C@@H]2N(CC(=O)N[C@H]2COC[C@@H]2N(CC(=O)N[C@H]2COC[C@@H]2N(CC(=O)NCCOCCOCC(N)=O)C(=O)Cn2cnc3c(N)ncnc32)C(=O)Cn2cc(C)c(=O)[nH]c2=O)C(=O)Cn2cnc3c(N)ncnc32)C(=O)Cn2cnc3c(=O)[nH]c(N)nc32)[C@H]2CCC[C@@H]2NC(=O)CN(C(=O)Cn2cnc3c(=O)[nH]c(N)nc32)[C@H]2CCC[C@@H]2NC(=O)CN(C(=O)Cn2cc(C)c(=O)[nH]c2=O)[C@H]2COC[C@@H]2NC(=O)CN(C(=O)Cn2cnc3c(N)ncnc32)[C@H]2COC[C@@H]2NC(=O)CN(C(=O)Cn2cnc3c(=O)[nH]c(N)nc32)[C@H]2COC[C@@H]2N)c(=O)[nH]c1=O — ΔS (complementary RNA; duplex formation, UV melting curve fit; PBS; 1 µM): -168 ± 4.2 cal/mol/K
CC[C@H](C)[C@H](NC(=O)[C@@H](NC(=O)[C@@H](NC(=O)[C@@H](NC(=O)[C@H](CCCNC(=N)N)NC(=O)[C@H](CCC(=O)O)NC(=O)[C@H](CCC(=O)O)NC(=O)[C@H](C)NC(=O)[C@H](CCC(=O)O)NC(=O)CNC(=O)[C@H](C)NC(=O)CN)C(C)C)C(C)C)C(C)C)C(=O)N[C@@H](CC(=O)O)C(=O)N[C@@H](CC(=O)O)C(=O)N[C@@H](CC(=O)O)C(=O)N[C@@H](CCC(=O)O)C(=O)N[C@@H](CC(=O)O)C(=O)N[C@@H](CC(=O)O)C(=O)N[C@@H](CC(=O)O)C(=O)N[C@@H](C)C(=O)N[C@@H](CCC(=O)O)C(=O)N[C@@H](CC(N)=O)C(=O)N[C@@H](CO)C(=O)N[C@@H](CO)C(=O)N[C@@H](CO)C(=O)N[C@@H](CCCNC(=N)N)C(=O)N[C@@H](Cc1ccc(O)cc1)C(=O)O — enthalpy change (ΔH) (Small ubiquitin-related modifier 2 (Homo sapiens, UniProt P61956, C48A); isothermal titration calorimetry; concentration not given, pH 7.4, SUMO2 construct): 1.14 ± 0.14 kcal/mol
COC(=O)[C@@]1(C)C=C(C(=O)OC(C)(C)C)C(=O)CC1 — fraction bound (MAPK8; D-peptide binding, inhibitor, FP peptide displacement; 62.5 µM; lower is stronger displacement): 0.652
CC(=O)N[C@H]1[C@H]([C@H](O)[C@H](O)CNC(=O)c2ccc(-c3ccccc3)cc2)O[C@@](OCc2cccc(Cl)c2Cl)(C(=O)O)C[C@@H]1O — -TΔS (CD22 (Homo sapiens, UniProt P20273); isothermal titration calorimetry): 2.61 ± 0.03 kcal/mol
COC1CN([C@H]2CC[C@H]([C@@]3(C)Oc4c(Cl)cc(C(=O)NCc5c(SC)cc(C)[nH]c5=O)c(C)c4O3)CC2)C1 — log2 fold change (RNA-seq, item: COMMD3-BMI1; human cancer patients, whole blood; dose not given, 24 h, PRC2 target gene; relative to: pretreatment sample): 1.25
CCCCCC(O)/C=C/C=O (centres unmarked) — isoTOP-ABPP competition ratio (KPNB1 (Homo sapiens, UniProt Q14974); competitive isoTOP-ABPP; Ramos soluble proteome; 100 µM, with: iodoacetamide probe; relative to: DMSO over compound-treated, higher = stronger cysteine blockade): 1.3
C[C@@H]1C[C@H](Nc2ccccc2)c2cc(F)ccc2N1C(=O)c1ccc(C#N)cc1 — pIC50 Z-score (Ecdysone receptor (Aedes albopictus, UniProt Q9U3Y4); ligand binding, inhibitor; intact cells; with: [3H]ponasterone A; direction not given): 1.17
CCC1(CC)C(=O)N(c2cc(C(=O)OC)cc(C(=O)N3CCN(Cc4ccc(Br)cc4)CC3)c2)C1=O — activity vs control (Dipeptidyl peptidase 8 (Homo sapiens, UniProt Q6V1X1); enzyme activity, inhibitor; 5 µM): 26%
CC(C)C[C@@H]1NC(=O)[C@H](Cc2ccccc2)NC(=O)CSC[C@@H](C(=O)NCC(N)=O)NC(=O)[C@H](C(C)C)NC(=O)[C@H](Cc2ccccc2)NC(=O)[C@H](Cc2ccc(O)cc2)NC(=O)[C@H](C(C)C)NC(=O)[C@H](CC(=O)O)NC(=O)[C@H](Cc2ccccc2)NC(=O)[C@H](CCCNC(=N)N)NC(=O)[C@H](Cc2ccccc2)N(C)C(=O)[C@H](C)NC(=O)[C@H](Cc2ccccc2)NC(=O)[C@H](C(C)C)NC1=O — ΔTm (STING1 (Homo sapiens, UniProt Q86WV6, H232R); thermal stability, DSF; 100 µM): -0.05 °C
COC(=O)[C@]1(Cc2ccccc2)C=C(C(=O)OC(C)(C)C)C(=O)CC1 — fraction bound (MAPK8; D-peptide binding, inhibitor, FP peptide displacement; 7.812 µM; lower is stronger displacement): 0.571
O=C1C[C@H](c2nc(-c3ccc(F)c4cn[nH]c34)no2)CCCN1c1ccc(F)cc1 (racemic) — Emax (CNR2 (Homo sapiens, UniProt P34972, F94A); cAMP, agonist, luciferase): 91.5%
COc1ccccc1-c1ccncc1C(=O)Nc1nnc(OCc2ccc(Cl)cc2)s1 — remaining activity (Bifunctional 3'-5' exonuclease/ATP-dependent helicase WRN, residues 500-946 (WRN, Homo sapiens, UniProt Q14191); ATPase activity, ADP-Glo; 0.015 µM; relative to: 0 µM cpd): 94%
Cc1cc(=O)oc2cc(NC(=O)CCCCCCCC(=O)NO)ccc12 — TΔS (HDAC8 (Homo sapiens, UniProt Q9BY41); ITC; Hepes buffer; pH 7.5): 5.8 kcal/mol
[N-]=[N+]=N[C@]1(COP(=O)(O)OP(=O)(O)OP(=O)(O)O)O[C@@H](n2ccc(N)nc2=O)[C@@H](F)[C@@H]1O — Vmax (Genome polyprotein, NS5B (Hepatitis C virus genotype 1b, UniProt Q9WMX2); nucleotide incorporation, substrate): 0.72 fraction per time

A few entries again:
COc1ccccc1-c1ccncc1C(=O)Nc1nnc(OCc2ccc(Cl)cc2)s1 — remaining activity (Bifunctional 3'-5' exonuclease/ATP-dependent helicase WRN, residues 500-946 (WRN, Homo sapiens, UniProt Q14191); ATPase activity, ADP-Glo; 0.015 µM; relative to: 0 µM cpd): 94%
COC1CN([C@H]2CC[C@H]([C@@]3(C)Oc4c(Cl)cc(C(=O)NCc5c(SC)cc(C)[nH]c5=O)c(C)c4O3)CC2)C1 — log2 fold change (RNA-seq, item: COMMD3-BMI1; human cancer patients, whole blood; dose not given, 24 h, PRC2 target gene; relative to: pretreatment sample): 1.25
